Measurements collected from several papers.
Protocols differ between the studies behind these lines. Numbers after ± are the reported error.
PROK: Proteinase K (PROK, Engyodontium album, UniProt P06873)
Sequence of UniProt P06873 (whole entry, looked up): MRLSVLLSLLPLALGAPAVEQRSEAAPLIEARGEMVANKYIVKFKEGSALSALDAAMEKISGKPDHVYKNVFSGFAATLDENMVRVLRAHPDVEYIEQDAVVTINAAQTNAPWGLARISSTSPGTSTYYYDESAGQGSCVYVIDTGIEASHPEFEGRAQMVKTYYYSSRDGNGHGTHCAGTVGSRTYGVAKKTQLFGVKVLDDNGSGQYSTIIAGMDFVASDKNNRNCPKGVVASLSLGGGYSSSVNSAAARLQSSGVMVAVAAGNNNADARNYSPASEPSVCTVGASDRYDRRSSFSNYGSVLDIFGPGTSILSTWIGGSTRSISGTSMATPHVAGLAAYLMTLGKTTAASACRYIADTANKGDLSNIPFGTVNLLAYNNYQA
Ahr: Aryl hydrocarbon receptor (Ahr, Mus musculus, UniProt P30561)
Sequence of UniProt P30561 (whole entry, looked up): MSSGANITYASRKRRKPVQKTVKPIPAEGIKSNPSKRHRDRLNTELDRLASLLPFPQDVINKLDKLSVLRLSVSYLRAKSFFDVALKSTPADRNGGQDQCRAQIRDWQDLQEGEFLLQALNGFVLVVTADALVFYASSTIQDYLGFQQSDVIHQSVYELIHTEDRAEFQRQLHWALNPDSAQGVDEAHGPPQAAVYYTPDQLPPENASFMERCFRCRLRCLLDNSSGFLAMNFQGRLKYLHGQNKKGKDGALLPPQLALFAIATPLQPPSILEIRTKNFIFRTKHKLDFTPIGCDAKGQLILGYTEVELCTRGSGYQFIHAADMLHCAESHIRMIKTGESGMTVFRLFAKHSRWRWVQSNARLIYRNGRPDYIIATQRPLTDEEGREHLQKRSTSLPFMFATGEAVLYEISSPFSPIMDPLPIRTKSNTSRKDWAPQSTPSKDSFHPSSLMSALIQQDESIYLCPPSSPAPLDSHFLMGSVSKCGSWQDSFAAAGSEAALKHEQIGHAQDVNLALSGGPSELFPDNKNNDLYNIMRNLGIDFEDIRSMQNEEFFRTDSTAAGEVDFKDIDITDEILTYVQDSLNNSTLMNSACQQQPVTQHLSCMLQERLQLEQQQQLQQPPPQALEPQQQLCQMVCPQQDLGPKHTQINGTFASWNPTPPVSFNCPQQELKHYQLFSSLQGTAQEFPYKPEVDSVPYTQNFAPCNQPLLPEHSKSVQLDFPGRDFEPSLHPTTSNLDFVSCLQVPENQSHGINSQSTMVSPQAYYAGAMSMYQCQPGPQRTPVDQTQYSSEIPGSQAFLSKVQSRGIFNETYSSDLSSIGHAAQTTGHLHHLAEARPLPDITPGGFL
CYP2D6: Cytochrome P450 2D6 (CYP2D6, Homo sapiens, UniProt P10635)
Sequence of UniProt P10635 (whole entry, looked up): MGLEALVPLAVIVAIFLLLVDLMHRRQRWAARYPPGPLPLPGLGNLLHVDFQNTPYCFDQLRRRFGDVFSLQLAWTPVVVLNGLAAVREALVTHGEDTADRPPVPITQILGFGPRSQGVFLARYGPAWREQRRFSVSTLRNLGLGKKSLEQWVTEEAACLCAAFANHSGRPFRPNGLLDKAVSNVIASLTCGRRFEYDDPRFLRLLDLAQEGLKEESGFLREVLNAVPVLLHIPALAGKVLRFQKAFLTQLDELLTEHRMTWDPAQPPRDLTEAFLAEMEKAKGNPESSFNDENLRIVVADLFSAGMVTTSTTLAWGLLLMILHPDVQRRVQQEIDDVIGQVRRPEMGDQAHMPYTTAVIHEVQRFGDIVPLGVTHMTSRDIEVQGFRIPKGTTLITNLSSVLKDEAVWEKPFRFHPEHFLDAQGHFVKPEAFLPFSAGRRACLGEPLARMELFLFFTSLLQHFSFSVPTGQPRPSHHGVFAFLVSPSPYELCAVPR
CYP1B1: Cytochrome P450 1B1 (CYP1B1, Homo sapiens, UniProt Q16678)
Sequence of UniProt Q16678 (whole entry, looked up): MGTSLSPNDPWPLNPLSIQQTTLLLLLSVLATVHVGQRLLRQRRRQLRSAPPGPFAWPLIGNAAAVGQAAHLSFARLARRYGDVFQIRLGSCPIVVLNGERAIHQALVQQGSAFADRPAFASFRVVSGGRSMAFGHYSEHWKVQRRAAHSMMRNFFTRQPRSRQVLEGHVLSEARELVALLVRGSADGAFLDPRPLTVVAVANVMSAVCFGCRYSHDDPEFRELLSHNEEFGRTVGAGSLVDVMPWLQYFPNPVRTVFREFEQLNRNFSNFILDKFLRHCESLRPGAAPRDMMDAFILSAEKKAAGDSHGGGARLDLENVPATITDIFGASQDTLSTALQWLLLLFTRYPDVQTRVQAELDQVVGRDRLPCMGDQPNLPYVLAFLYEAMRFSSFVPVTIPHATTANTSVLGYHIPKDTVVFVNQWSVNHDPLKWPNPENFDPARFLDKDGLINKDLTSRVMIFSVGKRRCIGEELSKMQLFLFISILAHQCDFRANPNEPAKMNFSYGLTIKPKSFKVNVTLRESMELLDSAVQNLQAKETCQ
Sequence of UniProt P20813 (whole entry, looked up): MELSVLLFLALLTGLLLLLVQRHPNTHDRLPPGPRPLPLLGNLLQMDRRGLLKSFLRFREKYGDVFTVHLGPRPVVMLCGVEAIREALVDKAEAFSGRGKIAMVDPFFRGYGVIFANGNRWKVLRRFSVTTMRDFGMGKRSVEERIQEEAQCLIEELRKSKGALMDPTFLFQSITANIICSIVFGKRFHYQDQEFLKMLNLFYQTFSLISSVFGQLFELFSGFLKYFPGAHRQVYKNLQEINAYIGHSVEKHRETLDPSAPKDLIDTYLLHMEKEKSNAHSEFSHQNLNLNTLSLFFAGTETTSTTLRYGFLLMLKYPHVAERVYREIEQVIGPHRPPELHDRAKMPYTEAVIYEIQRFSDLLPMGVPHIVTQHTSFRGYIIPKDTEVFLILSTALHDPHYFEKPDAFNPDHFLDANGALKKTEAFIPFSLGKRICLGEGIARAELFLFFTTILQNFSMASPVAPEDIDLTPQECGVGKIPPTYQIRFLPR
Sequence of UniProt P07099 (whole entry, looked up): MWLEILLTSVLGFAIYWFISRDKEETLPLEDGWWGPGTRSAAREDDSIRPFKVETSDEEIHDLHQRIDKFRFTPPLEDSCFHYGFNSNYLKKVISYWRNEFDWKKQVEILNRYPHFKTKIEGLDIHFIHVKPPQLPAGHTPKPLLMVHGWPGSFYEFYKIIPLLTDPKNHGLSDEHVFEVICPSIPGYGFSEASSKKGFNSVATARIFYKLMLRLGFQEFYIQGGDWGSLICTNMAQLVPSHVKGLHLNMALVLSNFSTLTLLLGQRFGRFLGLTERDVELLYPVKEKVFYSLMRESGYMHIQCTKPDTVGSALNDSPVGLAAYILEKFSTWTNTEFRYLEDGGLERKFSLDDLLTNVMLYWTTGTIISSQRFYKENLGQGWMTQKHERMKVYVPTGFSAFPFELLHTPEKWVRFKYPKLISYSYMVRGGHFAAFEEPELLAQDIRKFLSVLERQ
Sequence of UniProt P13866 (whole entry, looked up): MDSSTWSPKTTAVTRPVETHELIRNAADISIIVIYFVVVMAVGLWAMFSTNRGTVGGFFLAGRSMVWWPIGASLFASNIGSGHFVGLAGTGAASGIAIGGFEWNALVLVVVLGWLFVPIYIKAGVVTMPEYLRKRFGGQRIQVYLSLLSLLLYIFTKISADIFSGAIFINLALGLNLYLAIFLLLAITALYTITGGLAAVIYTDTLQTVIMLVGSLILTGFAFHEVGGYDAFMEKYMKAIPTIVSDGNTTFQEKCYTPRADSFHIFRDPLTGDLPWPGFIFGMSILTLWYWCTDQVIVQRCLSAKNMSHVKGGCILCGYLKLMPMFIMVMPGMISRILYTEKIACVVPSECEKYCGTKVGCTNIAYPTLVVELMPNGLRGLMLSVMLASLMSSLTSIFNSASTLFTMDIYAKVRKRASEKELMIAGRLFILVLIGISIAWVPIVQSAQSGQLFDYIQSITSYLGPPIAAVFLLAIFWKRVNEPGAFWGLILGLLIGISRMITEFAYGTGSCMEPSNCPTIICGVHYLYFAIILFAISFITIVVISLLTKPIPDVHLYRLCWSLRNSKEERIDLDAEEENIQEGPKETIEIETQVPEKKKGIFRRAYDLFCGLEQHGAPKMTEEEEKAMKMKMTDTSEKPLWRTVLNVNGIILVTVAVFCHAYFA
Sequence of UniProt Q9Y6L6 (whole entry, looked up): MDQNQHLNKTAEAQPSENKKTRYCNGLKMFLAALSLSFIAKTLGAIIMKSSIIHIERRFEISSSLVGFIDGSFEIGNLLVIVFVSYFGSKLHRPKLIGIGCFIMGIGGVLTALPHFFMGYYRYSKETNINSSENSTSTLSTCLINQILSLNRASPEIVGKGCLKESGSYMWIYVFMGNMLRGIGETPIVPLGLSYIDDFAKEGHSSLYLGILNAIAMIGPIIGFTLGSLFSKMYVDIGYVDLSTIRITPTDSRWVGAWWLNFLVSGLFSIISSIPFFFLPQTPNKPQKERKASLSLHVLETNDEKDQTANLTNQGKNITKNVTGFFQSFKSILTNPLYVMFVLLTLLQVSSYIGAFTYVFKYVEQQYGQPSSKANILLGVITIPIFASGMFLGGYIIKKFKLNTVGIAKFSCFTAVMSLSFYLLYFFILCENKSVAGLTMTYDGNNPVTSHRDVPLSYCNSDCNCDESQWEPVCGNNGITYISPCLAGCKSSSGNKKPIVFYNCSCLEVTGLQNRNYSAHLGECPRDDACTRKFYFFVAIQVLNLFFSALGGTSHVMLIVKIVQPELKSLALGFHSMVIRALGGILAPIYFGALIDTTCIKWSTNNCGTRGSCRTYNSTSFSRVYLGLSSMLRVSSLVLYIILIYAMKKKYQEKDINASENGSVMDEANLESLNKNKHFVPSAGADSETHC

O=S(=O)(O)Oc1cc(Cl)c(-c2cc(Cl)ccc2Cl)cc1Cl
Km (sulfatase, human liver microsomes; substrate; pH 7.4, 37 °C): 3.4 ± 0.4 µM

C[C@]1(C(=O)[O-])CSC(c2ncc(O)cc2O)=N1.[Na+]
Job's plot maximum mole fraction (Fe(III); Job's plot; pH 7.4, total 1.0 mM): 0.669

CCCC[C@@H]1NC(=O)[C@H](C(C)C)NC(=O)[C@H](Cc2c[nH]cn2)NC(=O)[C@H]([C@@H](C)CC)NC(=O)[C@H](CC(=O)O)NC(=O)[C@@H](NC(=O)C[C@H](CC(N)=O)NC(=O)[C@@H]2CCCN2C(=O)C[C@H](CCC(=O)O)NC(=O)[C@@H](N)C(C)C)CSSC[C@@H](C(=O)N[C@@H](Cc2ccccc2)C(=O)N[C@H]2CNC[C@@H]2C(=O)N[C@@H](CCCNC(=N)N)C(=O)N[C@H](CC(N)=O)CC(C)C)NC(=O)[C@H](CCC(=O)O)NC(=O)[C@H](Cc2c[nH]c3ccccc23)NC(=O)C[C@H](CCC(=O)O)NC(=O)C[C@H](Cc2c[nH]c3ccccc23)NC1=O
half-life (PROK; proteolytic stability; TBS; 50 µM, pH 7.5, 5% DMSO, together with: proteinase K 10 µg/mL): 5 h

Clc1ccc(-c2ccc(Cl)c(Cl)c2)cc1Cl
Ki (Ahr; binding, competitor; in vitro expressed receptor, together with: [3H]TCDD): 0.094 µM

CCC[S+]([O-])c1ccc2[nH]c(NC(=O)OC)nc2c1 (stereo not drawn)
inhibition (CYP2D6; inhibitor; human liver microsomes; 10 µM, pH 7.4, together with: dextromethorphan): < 0%

C#CCOc1ccc(-c2ccccc2)cc1
Kd (CYP1B1; reverse type I spectral binding; pH 7.4): 83 ± 26 µM

C1CO1
Km (Epoxide hydrolase 1 (EPHX1, Homo sapiens, UniProt P07099); enzyme activity, substrate): 12700 µM

Clc1ccc(-c2cc(Cl)c(Cl)c(Cl)c2Cl)cc1
EC50 (Ahr; reporter gene, agonist; Hepa-1c1c7; 24 h): 0.796 ± 0.661 µM

O=[N+]([O-])c1ccc(O)cc1
hydroxylation rate (Cytochrome P450 2E1 (CYP2E1, Homo sapiens, UniProt P05181); substrate; pooled human liver microsomes; 250 µM, pH 7.4, added enzyme to P450 molar ratio 0.5): 12.9 ± 1.4 min⁻¹

CC(C)C=Cc1c(O)cc(/C=C/c2ccc(O)cc2)cc1O
Km (UGT1A7 human; 4'-O-glucuronide formation, substrate; pH 7.4): 36.7 ± 5.9 µM

O=C1Nc2ccc(Cl)cc2[C@@](C#CC2CC2)(C(F)(F)F)O1
AUC(0-72 h) (Cytochrome P450 2B6 (CYP2B6, Homo sapiens, UniProt P20813); healthy human, plasma; oral, 50 mg, together with: midazolam 2 mg, no ritlecitinib): 5560 ng·h/mL

O=S(=O)(O)Oc1ccc(-c2cccc(Cl)c2)cc1Cl
Km (sulfatase, human liver microsomes; substrate; pH 7.4, 37 °C): 15.1 ± 7.1 µM

Nc1ncnc2c1nc(SCCNC(=S)Nc1ccc(-c3c4ccc(=O)cc-4oc4cc(O)ccc34)c(C(=O)O)c1)n2[C@@H]1O[C@@H]2COP(=O)(O)O[C@H]2[C@H]1O
Km (Solute carrier organic anion transporter family member 1B1 (SLCO1B1, Homo sapiens, UniProt Q9Y6L6); substrate; CHO cells; 10 min): 2.9 µM

CNC(=O)Oc1cc(C)c(SC)c(C)c1
inhibition (CYP2D6; inhibitor; human liver microsomes; 10 µM, pH 7.4, together with: dextromethorphan): < 0%

CCCC[C@H](NC(C)=O)C(=O)N[C@@H](CO)C(=O)N[C@H](C(=O)N1CCC[C@H]1C(=O)N[C@@H](C)C(=O)N[C@@H](CCCNC(=N)N)C(=O)N[C@@H](CCCNC(=N)N)C(=O)N[C@@H](CCCNC(=N)N)C(=O)N[C@@H](CC(C)C)C(=O)N[C@@H](CCCC)C(=O)N[C@@H](CCCNC(=N)N)C(=O)N[C@@H](CC(=O)O)C(=O)N[C@@H](Cc1ccccc1)C(=O)N[C@@H](CCCCN)C(=O)N[C@@H](CCCNC(=N)N)C(=O)N[C@@H](CC(C)C)C(=O)N[C@@H](CCC(N)=O)C(N)=O)[C@@H](C)O
half-life (PROK; substrate, LC-MS; 25 µM, pH 7.4): 0.283 h

C#CCOCCc1ccc2ccccc2c1
Kd (CYP1B1; reverse type I spectral binding; pH 7.4): 110 ± 3.1 µM

O=C(c1c[nH]c2ccccc12)c1nccc2c1[nH]c1ccccc12
EC50 (Ahr; reporter gene, activator; H1L7.5c3 (mouse); 6 h): 0.0076 µM

CC(C)(O)c1ccccc1CC[C@@H](SCC1(CC(=O)O)CC1)c1cccc(/C=C/c2ccc3ccc(Cl)cc3n2)c1
inhibition (CYP2D6; inhibitor; human liver microsomes; 2 µM, pH 7.4, together with: dextromethorphan): < 0%

CC[N+]1=C(C=CC=CC=C2N(CCCCCC(=O)NCCN3C(=O)CC(SC[C@@H](NC(=O)[C@@H](CCCNC(=N)N)NC(=O)[C@@H](CCCNC(=N)N)NC(=O)[C@@H](CCCNC(=N)N)NC(=O)[C@@H](CCCNC(=N)N)NC(=O)[C@@H](CCCNC(=N)N)NC(=O)[C@@H](CCCNC(=N)N)NC(=O)[C@@H](CCCNC(=N)N)NC(=O)[C@@H](CCCNC(=N)N)NC(=O)[C@@H](CCCNC(=N)N)NC(=O)[C@H](CC(C)C)NC(=O)[C@H](CCCCN)NC(=O)[C@H](CC(C)C)NC(=O)[C@H](CCC(N)=O)NC(=O)[C@H](CC(C)C)NC(=O)[C@H](CCCNC(=N)N)NC(=O)CCCCCNC(=O)[C@@H](CCC(=O)O)NC(=O)[C@@H](CCC(=O)O)NC(=O)[C@@H](CCC(=O)O)NC(=O)[C@@H](CCC(=O)O)NC(=O)[C@@H](CCC(=O)O)NC(=O)[C@@H](CCC(=O)O)NC(=O)[C@@H](CCC(=O)O)NC(=O)[C@@H](CCC(=O)O)NC(=O)[C@H](N)CCC(=O)O)C(N)=O)C3=O)c3ccc(S(=O)(=O)O)cc3C2(C)C)C(C)(C)c2cc(S(=O)(=O)[O-])ccc21 (stereo partly drawn)
cleavage (Plasminogen (PLG, Homo sapiens, UniProt P00747); substrate; 5 µM, 2 h): 77.9 ± 2.1%

N[C@@H](CS)C(=O)[O-].N[C@@H](CS)C(=O)[O-].[Hg+2]
time to significant uptake (ATP-binding cassette sub-family C member 2 (ABCC2, Homo sapiens, UniProt Q92887); MRP2 membrane vesicles; 5 µM, 37 °C, mercuric conjugate; baseline: control vesicles): 5 min

Oc1ccc(/C=C/c2cc(O)cc(O)c2)cc1
Km (UGT1A1 human; 4'-O-glucuronide formation, substrate; pH 7.4): 25.3 ± 4.8 µM

C#CCOCc1ccc(-c2ccccc2)cc1
Kd (CYP1B1; reverse type I spectral binding; pH 7.4): 13 ± 1.5 µM

c1ccc(CCN2CCCCC2)cc1
Ki (Voltage-gated inwardly rectifying potassium channel KCNH2 (KCNH2, Homo sapiens, UniProt Q12809); ligand displacement, radioligand): > 10 µM

Clc1ccc(-c2cc(Cl)c(Cl)c(Cl)c2)cc1Cl
Ki (Ahr; binding, competitor; in vitro expressed receptor, together with: [3H]TCDD): 0.0046 µM

O=c1c(O[C@@H]2O[C@H](CO)[C@@H](O)[C@H](O)[C@H]2O)c(-c2ccc(O)c(O)c2)oc2cc(O)cc(O)c12
transport rate reduction (Sodium/glucose cotransporter 1 (SLC5A1, Homo sapiens, UniProt P13866); Caco-2 BBe1, SLC5A1 siRNA knockdown; 50 µM, 4 h; baseline: scrambled siRNA over knockdown): 1.92 fold

CCCSc1ccc2nc(NC(=O)OC)[nH]c2c1
inhibition (CYP2D6; inhibitor; human liver microsomes; 10 µM, pH 7.4, together with: dextromethorphan): < 0%

Clc1cc(-c2cc(Cl)c(Cl)c(Cl)c2)cc(Cl)c1Cl
EC50 (Ahr; reporter gene, agonist; Hepa-1c1c7; 24 h): 0.0257 ± 0.0046 µM

Clc1ccc(-c2ccc(Cl)c(Cl)c2Cl)c(Cl)c1Cl
Ki (Ahr; binding, competitor; in vitro expressed receptor, together with: [3H]TCDD): 1.42 µM

CSc1nc2cc(Cl)c(Oc3cccc(Cl)c3Cl)cc2[nH]1
inhibition (CYP2D6; inhibitor; human liver microsomes; 2 µM, pH 7.4, together with: dextromethorphan): < 0%

Oc1cc(O)cc(/C=C/c2ccc(O)c(O)c2)c1
Km (UGT1A9 human; 4'-O-glucuronide formation, substrate; pH 7.4): 15.1 ± 2.7 µM

Some of these lines once more:
Oc1cc(O)cc(/C=C/c2ccc(O)c(O)c2)c1
Km (UGT1A9 human; 4'-O-glucuronide formation, substrate; pH 7.4): 15.1 ± 2.7 µM

Clc1ccc(-c2ccc(Cl)c(Cl)c2)cc1Cl
Ki (Ahr; binding, competitor; in vitro expressed receptor, together with: [3H]TCDD): 0.094 µM

C1CO1
Km (Epoxide hydrolase 1 (EPHX1, Homo sapiens, UniProt P07099); enzyme activity, substrate): 12700 µM

CC(C)C=Cc1c(O)cc(/C=C/c2ccc(O)cc2)cc1O
Km (UGT1A7 human; 4'-O-glucuronide formation, substrate; pH 7.4): 36.7 ± 5.9 µM

CCC[S+]([O-])c1ccc2[nH]c(NC(=O)OC)nc2c1 (stereo not drawn)
inhibition (CYP2D6; inhibitor; human liver microsomes; 10 µM, pH 7.4, together with: dextromethorphan): < 0%
